Experimental data from different studies.
Lines come from different studies, so protocols differ. “And” joins repeats or separate records; there may be more than shown. ± marks the error that the study gave. Converted amounts (≈) assume the structure as drawn.
UCHL1: Ubiquitin carboxyl-terminal hydrolase isozyme L1 (UCHL1, Homo sapiens, UniProt P09936)
UniProt P09936, sequence (whole entry, looked up): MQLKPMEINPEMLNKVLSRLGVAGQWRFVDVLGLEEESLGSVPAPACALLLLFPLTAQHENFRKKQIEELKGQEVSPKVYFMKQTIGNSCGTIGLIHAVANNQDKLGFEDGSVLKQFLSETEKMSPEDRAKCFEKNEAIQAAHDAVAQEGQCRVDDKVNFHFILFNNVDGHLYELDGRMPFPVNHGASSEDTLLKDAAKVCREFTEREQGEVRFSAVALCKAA

N=C(N)c1ccc(OCc2ccc(-c3ccccc3)cc2COc2ccc(C(=N)N)cc2)cc1
FICI (Pseudomonas aeruginosa; checkerboard; ATCC 27853; unit not given, added: rifampicin; lower = stronger synergy): 0.094

C[C@@H](O)[C@H]1C(=O)N2C(C(=O)O)=C(SCCN=CN)C[C@H]12
bacterial load (Pseudomonas aeruginosa; BAA-2797, mouse, peritonitis model, spleen; intraperitoneal, 10 mg/kg single dose): 7.51 log10 CFU and 7.45 log10 CFU and 7.6 log10 CFU and 7.08 log10 CFU and 7.3 log10 CFU and 6.9 log10 CFU

COc1cc(C#CC(=O)c2cccc(C)c2)ccc1O
biofilm formation (Pseudomonas aeruginosa; static biofilm; PA14; 10 µM, 24 h, static; relative to: DMSO): 77%

O=C(NCCc1ccccc1)C1COC2(CCCCC2)O1 (stereo not drawn)
residual biofilm (Pseudomonas aeruginosa; crystal violet staining; 500 µg/mL, 24 h; relative to: untreated): 18 ± 5%

COc1cc(C#CC(=O)c2ccccc2OC)ccc1O
mRNA level (Pseudomonas aeruginosa; RT-qPCR, measured: lasB; biofilm cells; 10 µM, 24 h; relative to: untreated): 36%

N=C(N)c1ccc(OCCC(CCOc2ccc(C(=N)N)cc2)c2ccccc2)cc1 (stereo not drawn)
MIC in combination (Pseudomonas aeruginosa; ATCC 27853; concentration not given, added: rifampicin): 25 µg/mL

C[C@H]1COc2c(N3CCN(C)CC3)c(F)cc3c(=O)c(C(=O)O)cn1c23
MBC (Pseudomonas aeruginosa; ATCC 47085; 20 h): 7.81 µg/mL (≈ 21.6 µM)

N#CC(=Cc1ccccc1)C(=O)Nc1ccccc1-c1ccccc1
labelling (UCHL1; covalent, intact protein LC-MS; 12.5 µM): 13.9%

CC(C)(O/N=C(\C(=O)N[C@@H]1C(=O)N2C(C(=O)[O-])=C(C[n+]3ccccc3)CS[C@H]12)c1csc(N)n1)C(=O)O
MIC (Pseudomonas aeruginosa; R13-94 PER-producing isolate): > 128 µg/mL

COc1cccc(NC(=O)C(C#N)=Cc2cccc(Cl)c2Cl)c1
labelling (UCHL1; covalent, intact protein LC-MS; 12.5 µM): 43.2%

O=C(NCc1ccccc1)C1COC2(CCCCC2)OC1
residual biofilm (Pseudomonas aeruginosa; crystal violet staining; 500 µg/mL, 24 h; relative to: untreated): 16 ± 4%

N=C(N)c1ccc(OCc2cc(Br)cc(COc3ccc(C(=N)N)cc3)c2)cc1
FICI (Pseudomonas aeruginosa; checkerboard; ATCC 27853; unit not given, added: rifampicin; lower = stronger synergy): ≤ 0.078

COc1cccc(C(=O)C#Cc2ccc(F)c(F)c2)c1
IC50 (Pseudomonas aeruginosa; biofilm formation; PA14; static): 41 µM

CC[C@H](C)CCCCC(=O)N[C@@H](CCN)C(=O)N[C@H](C(=O)N[C@@H](CCN)C(=O)N[C@H]1CCNC(=O)[C@H]([C@@H](C)O)NC(=O)[C@H](CCN)NC(=O)[C@H](CCN)NC(=O)[C@H](CC(C)C)NC(=O)[C@@H](CC(C)C)NC(=O)[C@H](CCN)NC1=O)[C@@H](C)O
MIC (Pseudomonas aeruginosa; broth microdilution; ATCC 27853, cation-adjusted Mueller-Hinton broth; 18 to 20 h, 37 °C, 0.002% polysorbate 80): 0.5 µg/mL (≈ 0.428 µM)

CC1(C)OCC(C(=O)NCCc2ccccc2)O1 (stereo not drawn)
residual biofilm (Pseudomonas aeruginosa; crystal violet staining; 500 µg/mL, 24 h; relative to: untreated): 38 ± 7%

OC(C#Cc1ccc(F)c(F)c1)c1cccc(Cl)c1 (stereo not drawn)
biofilm formation (Pseudomonas aeruginosa; static biofilm; PA14; 10 µM, 24 h, static; relative to: DMSO): 136%

COC(=O)[C@H](Cc1ccc(O)cc1)NCc1cc2ccccc2nc1SC
growth (Pseudomonas aeruginosa; 2 µg/mL, added: pentamidine 100 µM; relative to: control): 62.4%

COc1cc(C#CC(=O)CC(C)C)ccc1O
mRNA level (Pseudomonas aeruginosa; RT-qPCR, measured: lasB; biofilm cells; 10 µM, 24 h; relative to: untreated): 70%

C[C@@H](O)[C@H]1C(=O)N2C(C(=O)O)=C(SCCN=CN)C[C@H]12
MIC fold reduction (Pseudomonas aeruginosa; checkerboard; carbapenem-resistant; concentration not given, added: anionic gold nanoparticle 8 µg/mL; relative to: MIC alone over combination): 1 fold

COc1cc(C#CC(=O)C2CCCCC2)ccc1O
biofilm formation (Pseudomonas aeruginosa; static biofilm; PA14; 10 µM, 24 h, static; relative to: DMSO): 42%

CC[C@H](C)[C@H](NC(=O)CNC(=O)[C@@H](NC(=O)[C@H](Cc1ccccc1)NC(=O)[C@H](Cc1ccc(O)cc1)NC(=O)[C@@H]1CCC(=O)NCC(=O)NCC(=O)N[C@@H](C)C(=O)NCC(=O)N[C@@H](Cc2c[nH]cn2)C(=O)N[C@@H](C(C)C)C(=O)N2CCC[C@H]2C(=O)N1)C(C)C)C(=O)NCC(=O)N[C@H](C(=O)N1CCC[C@H]1C(=O)N[C@H](C(=O)N[C@@H](CO)C(=O)N[C@@H](Cc1ccccc1)C(=O)N[C@@H](Cc1ccc(O)cc1)C(=O)NCC(=O)O)[C@@H](C)CC)[C@@H](C)O
growth inhibition (Pseudomonas aeruginosa; concentration not given): no effect

Repeated from above:
N=C(N)c1ccc(OCc2cc(Br)cc(COc3ccc(C(=N)N)cc3)c2)cc1
FICI (Pseudomonas aeruginosa; checkerboard; ATCC 27853; unit not given, added: rifampicin; lower = stronger synergy): ≤ 0.078

COc1cccc(C(=O)C#Cc2ccc(F)c(F)c2)c1
IC50 (Pseudomonas aeruginosa; biofilm formation; PA14; static): 41 µM

CC[C@H](C)CCCCC(=O)N[C@@H](CCN)C(=O)N[C@H](C(=O)N[C@@H](CCN)C(=O)N[C@H]1CCNC(=O)[C@H]([C@@H](C)O)NC(=O)[C@H](CCN)NC(=O)[C@H](CCN)NC(=O)[C@H](CC(C)C)NC(=O)[C@@H](CC(C)C)NC(=O)[C@H](CCN)NC1=O)[C@@H](C)O
MIC (Pseudomonas aeruginosa; broth microdilution; ATCC 27853, cation-adjusted Mueller-Hinton broth; 18 to 20 h, 37 °C, 0.002% polysorbate 80): 0.5 µg/mL (≈ 0.428 µM)
